Measured values collected from several papers.
Each line is one published result; not all experiments were run side by side.
CA9: Carbonic anhydrase 9 (CA9, Homo sapiens, UniProt Q16790)
Tumor necrosis factor receptor superfamily member 9/Nectin-4: Tumor necrosis factor receptor superfamily member 9/Nectin-4 (Homo sapiens, UniProt Q07011+Q96NY8)
Sequence of UniProt Q96NY8 (whole entry, looked up): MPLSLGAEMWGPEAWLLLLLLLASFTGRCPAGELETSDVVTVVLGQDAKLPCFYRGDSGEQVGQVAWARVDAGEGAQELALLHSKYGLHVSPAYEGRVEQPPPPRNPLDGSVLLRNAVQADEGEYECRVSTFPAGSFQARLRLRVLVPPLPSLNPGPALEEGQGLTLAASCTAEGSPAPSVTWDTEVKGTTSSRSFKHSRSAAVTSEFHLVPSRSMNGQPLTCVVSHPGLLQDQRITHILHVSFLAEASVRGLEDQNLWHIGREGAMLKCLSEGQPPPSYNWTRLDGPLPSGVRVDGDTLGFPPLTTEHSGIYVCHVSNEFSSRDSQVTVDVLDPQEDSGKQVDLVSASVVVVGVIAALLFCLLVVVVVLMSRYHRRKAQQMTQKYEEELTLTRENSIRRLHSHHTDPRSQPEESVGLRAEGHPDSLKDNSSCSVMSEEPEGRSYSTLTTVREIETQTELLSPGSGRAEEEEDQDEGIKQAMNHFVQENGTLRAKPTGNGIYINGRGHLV
Sequence of UniProt Q07011 (whole entry, looked up): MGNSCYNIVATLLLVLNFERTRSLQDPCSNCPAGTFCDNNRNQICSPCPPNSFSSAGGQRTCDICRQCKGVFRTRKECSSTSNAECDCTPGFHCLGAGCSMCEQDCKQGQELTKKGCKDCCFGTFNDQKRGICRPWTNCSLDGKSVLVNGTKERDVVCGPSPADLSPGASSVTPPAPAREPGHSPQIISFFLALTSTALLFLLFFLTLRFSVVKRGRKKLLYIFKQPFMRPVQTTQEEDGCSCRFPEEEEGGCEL
Sequence of UniProt Q9UK32 (whole entry, looked up): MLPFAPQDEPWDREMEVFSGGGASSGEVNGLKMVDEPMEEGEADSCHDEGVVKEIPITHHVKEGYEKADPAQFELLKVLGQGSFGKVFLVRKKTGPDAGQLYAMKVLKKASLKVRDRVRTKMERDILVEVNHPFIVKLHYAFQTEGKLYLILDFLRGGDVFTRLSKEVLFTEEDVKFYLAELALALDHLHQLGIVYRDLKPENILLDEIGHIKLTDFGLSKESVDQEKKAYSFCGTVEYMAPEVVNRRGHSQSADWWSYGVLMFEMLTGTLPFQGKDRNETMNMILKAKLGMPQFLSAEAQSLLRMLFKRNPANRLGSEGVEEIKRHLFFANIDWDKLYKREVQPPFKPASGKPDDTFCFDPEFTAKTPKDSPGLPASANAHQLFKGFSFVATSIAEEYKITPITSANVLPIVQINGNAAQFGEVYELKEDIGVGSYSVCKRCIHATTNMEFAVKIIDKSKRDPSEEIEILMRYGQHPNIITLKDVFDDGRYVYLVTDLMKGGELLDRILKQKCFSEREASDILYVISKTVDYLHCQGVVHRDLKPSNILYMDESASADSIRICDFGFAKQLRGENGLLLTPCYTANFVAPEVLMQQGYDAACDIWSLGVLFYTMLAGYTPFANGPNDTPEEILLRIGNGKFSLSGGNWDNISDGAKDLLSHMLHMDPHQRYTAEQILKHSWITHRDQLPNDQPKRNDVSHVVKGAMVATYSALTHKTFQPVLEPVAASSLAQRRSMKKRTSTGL
Sequence of UniProt P08510 (whole entry, unmodified, looked up): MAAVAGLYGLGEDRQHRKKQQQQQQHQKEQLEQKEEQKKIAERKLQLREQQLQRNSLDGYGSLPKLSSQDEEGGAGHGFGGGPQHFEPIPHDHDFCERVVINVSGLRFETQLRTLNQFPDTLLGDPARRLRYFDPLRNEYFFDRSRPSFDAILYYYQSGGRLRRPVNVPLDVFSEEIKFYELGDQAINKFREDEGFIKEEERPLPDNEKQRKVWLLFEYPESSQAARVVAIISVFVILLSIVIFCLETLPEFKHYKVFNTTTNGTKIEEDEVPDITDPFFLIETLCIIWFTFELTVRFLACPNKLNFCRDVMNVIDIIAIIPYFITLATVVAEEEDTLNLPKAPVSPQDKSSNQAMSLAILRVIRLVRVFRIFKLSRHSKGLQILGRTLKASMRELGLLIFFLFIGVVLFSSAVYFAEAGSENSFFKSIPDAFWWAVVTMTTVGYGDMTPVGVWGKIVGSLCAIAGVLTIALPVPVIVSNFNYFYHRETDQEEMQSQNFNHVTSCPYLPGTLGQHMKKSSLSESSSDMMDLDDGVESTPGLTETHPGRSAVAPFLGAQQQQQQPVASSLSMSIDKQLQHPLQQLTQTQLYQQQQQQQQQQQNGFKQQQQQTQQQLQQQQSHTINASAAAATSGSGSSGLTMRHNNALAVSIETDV
Sequence of UniProt P19490 (whole entry, looked up): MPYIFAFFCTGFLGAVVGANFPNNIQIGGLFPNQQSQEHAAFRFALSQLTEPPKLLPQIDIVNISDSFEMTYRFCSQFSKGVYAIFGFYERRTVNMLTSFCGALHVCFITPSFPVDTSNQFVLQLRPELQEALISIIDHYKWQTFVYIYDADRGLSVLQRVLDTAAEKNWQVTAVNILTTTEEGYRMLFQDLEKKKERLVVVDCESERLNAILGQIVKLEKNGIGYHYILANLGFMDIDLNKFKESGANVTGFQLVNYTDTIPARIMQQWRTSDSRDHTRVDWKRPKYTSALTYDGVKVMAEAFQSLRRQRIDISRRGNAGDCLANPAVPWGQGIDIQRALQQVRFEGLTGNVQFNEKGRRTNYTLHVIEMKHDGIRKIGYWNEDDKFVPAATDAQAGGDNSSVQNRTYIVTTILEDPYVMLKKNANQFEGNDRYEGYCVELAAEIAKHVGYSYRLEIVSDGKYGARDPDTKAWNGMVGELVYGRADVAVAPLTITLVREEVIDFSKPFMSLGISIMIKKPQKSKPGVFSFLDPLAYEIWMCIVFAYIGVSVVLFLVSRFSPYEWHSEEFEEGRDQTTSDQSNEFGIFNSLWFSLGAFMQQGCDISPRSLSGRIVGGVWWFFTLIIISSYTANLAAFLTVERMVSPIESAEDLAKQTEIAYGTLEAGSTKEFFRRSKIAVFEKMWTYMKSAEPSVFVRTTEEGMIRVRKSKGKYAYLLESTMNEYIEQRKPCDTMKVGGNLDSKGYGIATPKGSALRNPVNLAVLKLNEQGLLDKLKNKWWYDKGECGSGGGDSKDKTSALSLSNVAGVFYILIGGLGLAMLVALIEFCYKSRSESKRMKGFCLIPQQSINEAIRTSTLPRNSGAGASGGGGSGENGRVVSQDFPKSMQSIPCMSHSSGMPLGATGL
Sequence of UniProt Q8NFV4 (whole entry, looked up): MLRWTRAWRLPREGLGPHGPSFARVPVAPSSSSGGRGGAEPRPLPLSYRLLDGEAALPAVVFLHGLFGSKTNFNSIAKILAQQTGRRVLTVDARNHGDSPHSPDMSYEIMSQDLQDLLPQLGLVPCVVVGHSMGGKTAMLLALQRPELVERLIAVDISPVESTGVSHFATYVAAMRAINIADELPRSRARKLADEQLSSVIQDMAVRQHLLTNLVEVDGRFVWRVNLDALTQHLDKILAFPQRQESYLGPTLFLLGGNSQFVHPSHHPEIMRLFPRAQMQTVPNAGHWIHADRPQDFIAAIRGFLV
Sequence of UniProt P22756 (whole entry, unmodified, looked up): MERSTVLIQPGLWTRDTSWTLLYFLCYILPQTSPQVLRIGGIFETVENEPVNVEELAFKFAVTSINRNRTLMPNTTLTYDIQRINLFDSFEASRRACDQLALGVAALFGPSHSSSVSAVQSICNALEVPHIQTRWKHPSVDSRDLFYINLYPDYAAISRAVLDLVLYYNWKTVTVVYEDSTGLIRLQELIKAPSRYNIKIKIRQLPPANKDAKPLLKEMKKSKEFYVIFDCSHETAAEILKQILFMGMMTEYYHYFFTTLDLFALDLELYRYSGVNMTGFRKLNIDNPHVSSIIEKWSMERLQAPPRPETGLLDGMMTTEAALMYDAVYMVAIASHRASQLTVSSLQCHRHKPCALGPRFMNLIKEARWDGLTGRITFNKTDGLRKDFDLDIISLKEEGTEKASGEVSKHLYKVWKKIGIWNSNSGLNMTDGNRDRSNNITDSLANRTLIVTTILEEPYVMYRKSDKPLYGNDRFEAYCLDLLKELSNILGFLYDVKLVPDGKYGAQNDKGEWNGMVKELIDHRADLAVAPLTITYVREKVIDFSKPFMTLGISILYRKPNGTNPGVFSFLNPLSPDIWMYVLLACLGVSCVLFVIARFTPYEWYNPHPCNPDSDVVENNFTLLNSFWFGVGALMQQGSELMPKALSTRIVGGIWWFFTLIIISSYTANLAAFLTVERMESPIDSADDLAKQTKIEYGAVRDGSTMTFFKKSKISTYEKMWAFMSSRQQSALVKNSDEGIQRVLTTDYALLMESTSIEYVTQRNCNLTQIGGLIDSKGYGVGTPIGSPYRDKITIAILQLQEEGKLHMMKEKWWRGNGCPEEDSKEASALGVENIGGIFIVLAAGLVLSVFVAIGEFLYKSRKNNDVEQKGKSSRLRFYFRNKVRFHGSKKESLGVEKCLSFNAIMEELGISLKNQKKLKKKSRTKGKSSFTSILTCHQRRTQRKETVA
Sequence of UniProt Q9UBE8 (whole entry, looked up): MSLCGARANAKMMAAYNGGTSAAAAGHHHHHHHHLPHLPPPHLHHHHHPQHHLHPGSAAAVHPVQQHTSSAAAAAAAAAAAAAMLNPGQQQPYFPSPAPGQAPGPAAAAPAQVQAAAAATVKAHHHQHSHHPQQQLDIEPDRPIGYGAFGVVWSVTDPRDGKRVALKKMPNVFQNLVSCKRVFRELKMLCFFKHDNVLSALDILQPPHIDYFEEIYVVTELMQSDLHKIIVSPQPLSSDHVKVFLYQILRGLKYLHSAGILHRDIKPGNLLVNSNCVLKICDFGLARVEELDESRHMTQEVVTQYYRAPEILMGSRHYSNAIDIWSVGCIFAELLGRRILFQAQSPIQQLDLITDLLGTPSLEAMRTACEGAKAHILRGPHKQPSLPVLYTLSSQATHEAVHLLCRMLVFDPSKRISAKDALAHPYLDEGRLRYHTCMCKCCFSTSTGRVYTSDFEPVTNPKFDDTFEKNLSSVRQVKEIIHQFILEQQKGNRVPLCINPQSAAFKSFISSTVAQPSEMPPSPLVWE

SMILES | target or system | assay | test system | setting | scale | measurement | result
CC(C)C[C@@H]1NC(=O)[C@H](CC(C)C)NC(=O)[C@H](Cc2c[nH]c3ccccc23)NC(=O)[C@H](CO)NC(=O)[C@H](Cc2c[nH]c3ccccc23)NC(=O)[C@@H]2CCCN2C(=O)[C@H](CC(C)C)NC(=O)[C@H](Cc2c[nH]cn2)NC(=O)[C@@H]2CCCN2C(=O)[C@H](CC(N)=O)NC(=O)[C@H](C)NC(=O)[C@H](Cc2ccc(O)cc2)NC(=O)[C@H](CS)NC(=O)[C@H](CCCCNC(=O)CN2CCN(CC(=O)O)CCN(CC(=O)O)CCN(CC(=O)O)CC2)NC1=O [lutetium-177 labelled] | – | – | Balb/c mouse, female, 4T1 tumour, liver | intravenous, 3.7 MBq, 96 h | – | tissue uptake | 1.9 %ID
COc1cc(Nc2ncc(F)c(Nc3ccc4c(n3)NC(=O)C(C)(C)O4)n2)cc(OC)c1OC | MMP14 (Homo sapiens, UniProt P50281) | enzyme activity, inhibitor | – | – | – | IC50 | > 10 µM
O=C(Nc1cccc(Cl)c1)Nc1ccc2c(c1)C=CCP(=O)(O)O2 | CA9 | – | – | – | – | Ki | 0.0529 µM
CSCC[C@H](N)C(=O)N[C@@H](C)C(=O)N[C@@H](C)C(=O)N[C@H](C(=O)N[C@@H](C)C(=O)NCC(=O)N[C@@H](CC(C)C)C(=O)N[C@@H](Cc1ccc(O)cc1)C(=O)NCC(=O)N[C@@H](CC(C)C)C(=O)NCC(=O)N[C@@H](CCC(=O)O)C(=O)N[C@@H](CC(=O)O)C(=O)N[C@@H](CCCNC(=N)N)C(=O)N[C@@H](CCC(N)=O)C(=O)N[C@@H](Cc1c[nH]cn1)C(=O)N[C@@H](CCCNC(=N)N)C(=O)N[C@@H](CCCCN)C(=O)N[C@@H](CCCCN)C(=O)N[C@@H](CCC(N)=O)C(N)=O)C(C)C | Sh, DEL6-46 (Drosophila melanogaster, UniProt P08510) | ion current, blocker, inside-out patch clamp | – | +50 mV | – | Kd | 4.2 µM
COc1cccc(NC(=O)Nc2ccc3c(c2)C=CCP(=O)(O)O3)c1 | CA9 | – | – | – | – | Ki | 0.0533 µM
NC(CC1(C(=O)O)CC2OC(CO)C(O)C(N)C2O1)C(=O)O (stereo not drawn) | Glutamate receptor ionotropic, kainate 1 (Rattus norvegicus, UniProt P22756, del402-416) | [3H]kainate displacement | HEK-293T/17 membranes | – | – | Ki | 0.0072 µM
COc1cc2c(Oc3ccc4[nH]c(C)cc4c3F)ccnc2cc1OCC1(N)CC1 | – | – | paediatric recurrent refractory sarcoma | 12 mg | – | grade 3 TBIL elevation | 9.1%
O=C(Nc1ccc2c(c1)C=CCP(=O)(O)O2)c1ccccc1 | CA9 | – | – | – | – | Ki | 0.0108 µM
C[C@H]1CN(c2n[nH]c3nc(N[C@H]4CC[C@H](NS(=O)(=O)CCC(F)(F)F)CC4)ncc23)CCO1 | NLK (Homo sapiens, UniProt Q9UBE8) | competitor, Kinobeads competition | HEK293, K562, placenta extract | – | – | IC50 | 0.62 µM
C[N+](C)(C)[C@@H](Cc1c[nH]c(=S)[nH]1)C(=O)[O-] | egtUBC (Streptococcus pneumoniae, UniProt A0A0H2ZQB9, K242S) | binding | – | – | – | Kd | > 100 µM
C[C@@H](O)[C@@H](CO)NC(=O)[C@@H](CCCNC(=N)N)NC(=O)[C@@H]1CCCN1C(=O)[C@@H]1CSSC[C@H](NC(=O)[C@H](Cc2ccccc2)NC(=O)CN2CCN(CC(=O)O)CCN(CC(=O)O)CCN(CC(=O)O)CC2)C(=O)N[C@@H](Cc2ccc(O)cc2)C(=O)N[C@@H](Cc2ccccc2)C(=O)N[C@@H](CCC(N)=O)C(=O)N[C@@H](CC(N)=O)C(=O)N1 [gallium-68 labelled] | – | – | Wistar rat, blood | intravenous, 8 MBq, 30 min, group mean | – | tissue uptake | 1.4 %ID/g
CCCC[C@@H]1NC(=O)[C@H](Cc2ccc(O)cc2)NC(=O)[C@@H]2CCCN2C(=O)[C@H](CC(=O)O)NC(=O)[C@H](C)NC(=O)[C@H](Cc2ccccc2)NC(=O)[C@@H]2CSCCC(=O)N3CN(CN(C3)C(=O)CCSC[C@@H](C(=O)N[C@@H](C)C(N)=O)NC1=O)C(=O)CCSC[C@H](NC(=O)[C@H](C)NC(C)=O)C(=O)N[C@@H]([C@@H](C)CC)C(=O)N[C@@H](CCC(=O)O)C(=O)N[C@@H](CCC(=O)O)C(=O)N[C@H](CCCCNC(=O)CCc1cn(CCOCCOCCOCCOCCOCCC(=O)N[C@H]3CSCCC(=O)N4CN5CN(C4)C(=O)CCSC[C@H](NC(=O)[C@@H](CC(=O)O)NC(=O)[C@H](Cc4cccc6ccccc46)NC(=O)[C@@H]4CCCN4C3=O)C(=O)N[C@@H](CCSC)C(=O)N[C@@H](CCCCNC(=N)N)C(=O)N[C@@H](CC(=O)O)C(=O)N[C@@H](Cc3c[nH]c4ccccc34)C(=O)N[C@@H](CO)C(=O)N[C@@H]([C@@H](C)O)C(=O)N3CCC[C@H]3C(=O)N3C[C@H](O)C[C@H]3C(=O)N[C@@H](Cc3c[nH]c4ccccc34)C(=O)N[C@H](C(N)=O)CSCCC5=O)nn1)C(=O)N[C@@H](CCC(N)=O)C(=O)N[C@@H](Cc1ccc(O)cc1)C(=O)N2 | Tumor necrosis factor receptor superfamily member 9/Nectin-4 | reporter gene, agonist | HT-1376 coculture with reporter cells | – | – | EC50 | 0.00242 µM
O=C(Nc1ccc2c(c1)C=CCP(=O)(O)O2)c1ccc(Cl)cc1 | CA9 | – | – | – | – | Ki | 0.158 µM
CCCC[C@@H]1NC(=O)[C@H](Cc2ccc(O)cc2)NC(=O)[C@@H]2CCCN2C(=O)[C@H](CC(N)=O)NC(=O)[C@H](C)NC(=O)[C@H](Cc2ccccc2)NC(=O)[C@@H]2CSCCC(=O)N3CN(CN(C3)C(=O)CCSC[C@H](NC(C)=O)C(=O)N[C@@H](CC(C)(C)C)C(=O)N3CCC[C@H]3C(=O)N[C@@H](CCC(=O)O)C(=O)N[C@H](CCCCNC(=O)CCc3cn(CCOCCOCCOCCOCCOCCC(=O)N[C@H]4CSCCC(=O)N5CN6CN(C5)C(=O)CCSC[C@H](NC(=O)[C@@H](CC(=O)O)NC(=O)[C@H](Cc5cccc7ccccc57)NC(=O)[C@@H]5CCCN5C4=O)C(=O)N[C@@H](CCSC)C(=O)N[C@@H](CCCCNC(=N)N)C(=O)N[C@@H](CC(=O)O)C(=O)N[C@@H](Cc4c[nH]c5ccccc45)C(=O)N[C@@H](CO)C(=O)N[C@@H]([C@@H](C)O)C(=O)N4CCC[C@H]4C(=O)N4C[C@H](O)C[C@H]4C(=O)N[C@@H](Cc4c[nH]c5ccccc45)C(=O)N[C@H](C(N)=O)CSCCC6=O)nn3)C(=O)N3CCC[C@H]3C(=O)N[C@@H](Cc3ccc(O)cc3)C(=O)N2)C(=O)CCSC[C@@H](C(N)=O)NC1=O | Tumor necrosis factor receptor superfamily member 9/Nectin-4 | reporter gene, agonist | HT-1376 coculture with reporter cells | – | – | EC50 | 0.0269 µM
COCC1OC2CC(CC(N)C(=O)O)(C(=O)O)OC2C(O)C1O (stereo not drawn) | Gria1 (Rattus norvegicus, UniProt P19490) | [3H]AMPA displacement | HEK-293T/17 membranes | – | – | Ki | > 10 µM
O=C(c1ccc(Cl)cc1)N1CCN2C(=O)N(OC(=O)N3CCOc4ccccc43)C(=O)C2C1 (stereo not drawn) | ABHD11 (Homo sapiens, UniProt Q8NFV4) | enzyme activity, inhibitor, MS-based ABPP | SW-620 in situ | 10 µM, 2 h, 37 °C | relative to: compound over DMSO, lower = stronger inhibition | median ratio | 1.08
CC[C@H](C)[C@H](NC(=O)[C@H](Cc1ccccc1)NC(=O)[C@H](CCC(=O)O)NC(=O)[C@H](CCCNC(=N)N)NC(=O)[C@H](C)NC(=O)[C@H](C)NC(=O)[C@H](CCC(N)=O)NC(=O)[C@H](CCC(=O)O)NC(=O)[C@H](CCC(=O)O)NC(=O)[C@H](CC(C)C)NC(=O)[C@H](Cc1ccc(O)cc1)NC(=O)[C@H](CO)NC(=O)[C@H](CO)NC(=O)[C@@H](NC(=O)[C@H](CC(=O)O)NC(=O)[C@H](CO)NC(=O)[C@@H](NC(=O)[C@H](Cc1ccccc1)NC(=O)[C@@H](NC(=O)CNC(=O)[C@H](CCC(=O)O)NC(=O)[C@H](C)NC(=O)CCc1c[nH]cn1)[C@@H](C)O)[C@@H](C)O)C(C)C)C(=O)N[C@@H](C)C(=O)N[C@@H](Cc1c[nH]c2ccccc12)C(=O)N[C@@H](CC(C)C)C(=O)N[C@H](C(=O)N[C@@H](CCCNC(=N)N)C(=O)NCC(=O)N[C@@H](CCCNC(=N)N)C(=O)N[C@@H](CCCCNC(=O)COCCOCCNC(=O)COCCOCCNC(=O)CC[C@H](NC(=O)CCCCCCCCCCCCCCCCC(=O)O)C(=O)O)C(=O)NCC(=O)NCC(=O)N[C@@H](CO)C(=O)N[C@@H](CCCCNc1c(NCCCCCN(O)C(=O)CCC(=O)NCCCCCN(O)C(=O)CCC(=O)NCCCCCN(O)C(C)=O)c(=O)c1=O)C(=O)O)C(C)C [zirconium-89 labelled] | – | gamma counting | rat, stomach-duodenum | subcutaneous, 3 nmol/kg, 72 h | – | tissue uptake | 0.3 %ID/g
CO[C@@H]1[C@@H](OC(N)=O)[C@@H](O)[C@H](Oc2ccc3c(O)c(NC(=O)c4ccc(O)c(CC=C(C)C)c4)c(=O)oc3c2C)OC1(C)C | TetR-family regulator NalD (Pseudomonas aeruginosa, UniProt Q9HY46, F174A/H167A/N175A) | – | – | – | – | Kd | 194 µM
CCCC[C@@H]1NC(=O)[C@H](Cc2ccc(O)cc2)NC(=O)[C@@H]2CCCN2C(=O)[C@H](CC(=O)O)NC(=O)[C@H](C)NC(=O)[C@H](Cc2ccccc2)NC(=O)[C@@H]2CSCCC(=O)N3CN(CN(C3)C(=O)CCSC[C@@H](C(=O)N[C@@H](C)C(N)=O)NC1=O)C(=O)CCSC[C@H](NC(C)=O)C(=O)N[C@@H](CC(C)(C)C)C(=O)N1CCC[C@H]1C(=O)N[C@@H](CCC(=O)O)C(=O)N[C@H](CCCCNC(=O)CCc1cn(CCOCCOCCCOCCOCCOCCOCCOCCOCCOCCOCCNC(=O)CCOCC(COCCC(=O)NCCOCCOCCOCCOCCOCCOCCOCCOCCOCCOCCn3cc(CCC(=O)NCCCC[C@H]4NC(=O)[C@H](CCC(=O)O)NC(=O)[C@@H]5CCCN5C(=O)[C@H](CC(C)(C)C)NC(=O)[C@@H](NC(C)=O)CSCCC(=O)N5CN6CN(C5)C(=O)CCSC[C@H](NC(=O)[C@H](Cc5ccc(O)cc5)NC(=O)[C@@H]5CCCN5C4=O)C(=O)N[C@@H](Cc4ccccc4)C(=O)N[C@@H](C)C(=O)N[C@@H](CC(=O)O)C(=O)N4CCC[C@H]4C(=O)N[C@@H](Cc4ccc(O)cc4)C(=O)N[C@@H](CCCC)C(=O)N[C@H](C(=O)N[C@@H](C)C(N)=O)CSCCC6=O)nn3)(COCCC(=O)NCCOCCOCCOCCOCCOCCOCCOCCOCCOCCOCCn3cc(CCC(=O)NCCCC[C@H]4NC(=O)[C@H](CCC(=O)O)NC(=O)[C@@H]5CCCN5C(=O)[C@H](CC(C)(C)C)NC(=O)[C@@H](NC(C)=O)CSCCC(=O)N5CN6CN(C5)C(=O)CCSC[C@H](NC(=O)[C@H](Cc5ccc(O)cc5)NC(=O)[C@@H]5CCCN5C4=O)C(=O)N[C@@H](Cc4ccccc4)C(=O)N[C@@H](C)C(=O)N[C@@H](CC(=O)O)C(=O)N4CCC[C@H]4C(=O)N[C@@H](Cc4ccc(O)cc4)C(=O)N[C@@H](CCCC)C(=O)N[C@H](C(=O)N[C@@H](C)C(N)=O)CSCCC6=O)nn3)COCCC(=O)NCCOCCOCCOCCOCCOCCOCCOCCOCCOCCOCCn3cc(CCC(=O)NCCC(=O)N[C@H]4CSCCC(=O)N5CN6CN(C5)C(=O)CCSC[C@H](NC(=O)[C@@H](CC(=O)O)NC(=O)[C@H](Cc5cccc7ccccc57)NC(=O)[C@@H]5CCCN5C4=O)C(=O)N[C@@H](CCSC)C(=O)N[C@@H](CCCCNC(=N)N)C(=O)N[C@@H](CC(=O)O)C(=O)N[C@@H](Cc4c[nH]c5ccccc45)C(=O)N[C@@H](CO)C(=O)N[C@@H]([C@@H](C)O)C(=O)N4CCC[C@H]4C(=O)N4C[C@H](O)C[C@H]4C(=O)N[C@@H](Cc4c[nH]c5ccccc45)C(=O)N[C@H](C(N)=O)CSCCC6=O)nn3)nn1)C(=O)N1CCC[C@H]1C(=O)N[C@@H](Cc1ccc(O)cc1)C(=O)N2 | Tumor necrosis factor receptor superfamily member 9/Nectin-4 | reporter gene, agonist | HT-1376 coculture with reporter cells | – | – | EC50 | 0.00017 µM
CC[C@H](C)[C@@H]1NC(=O)[C@@H]2CCCN2C(=O)[C@H](CC(C)C)NC(=O)[C@H](CC(C)C)NC(=O)CNC(=O)[C@@H](NC(=O)[C@@H](NC(=O)[C@H](CC(=O)O)NC(=O)CNC(=O)[C@@H](NC(=O)[C@H](C)NC(=O)CNC(=O)[C@H](CCCCN)NC(=O)[C@H](CC(C)C)NC(=O)[C@H](CC(C)C)NC(=O)[C@H](CCCCN)NC(=O)CNC(=O)[C@@H](NC(=O)[C@@H](N)CC(C)C)C(C)C)C(C)C)C(C)C)CSSC[C@@H](C(=O)O)NC1=O | – | RNA-seq, measured: Zfp54 mRNA | mouse traumatic brain injury, frontal cortex and hippocampus | dose not given | relative to: TBI plus compound vs TBI | log2 fold change | 1.26
COc1ccc(N2C(=O)N(c3c(C)cccc3Cl)Cc3cnc(Nc4ccc(C5CCN(C)CC5)cc4OC)nc32)nc1 | RPS6KA6 (Homo sapiens, UniProt Q9UK32) | kinase activity, inhibitor | – | 0.5 µM, RSK4 | – | inhibition | 9%
